Measurements pooled from the literature.
Protocols differ between the studies behind these lines.

Structure (SMILES) | test system | setting | measurement | value
C=C[C@@H]1C[C@]1(NC(=O)[C@@H]1C[C@@H]2CN1C(=O)[C@H](C(C)(C)C)NC(=O)O[C@@H]1C[C@H]1CCCCCc1nc3ccc(OC)cc3nc1O2)C(=O)NS(=O)(=O)C1CC1 | human K2EDTA plasma | -20 °C | plasma stability | ≥ 397 days
CC[C@H](C)CCCCC(=O)N[C@@H](CCN)C(=O)N[C@H](C(=O)N[C@@H](CCN)C(=O)N[C@H]1CCNC(=O)[C@H]([C@@H](C)O)NC(=O)[C@H](CCN)NC(=O)[C@H](CCN)NC(=O)[C@H](CC(C)C)NC(=O)[C@@H](Cc2ccccc2)NC(=O)[C@H](CCN)NC1=O)[C@@H](C)O | critically ill patients, plasma | intravenous, dose not given, 6 h, steady state, Low AUC group, median | plasma concentration at 6 h | 1180 ng/mL
C=C(C)[C@@H]1CC[C@]2(C(=O)OC)CC[C@]3(C)[C@H](CC[C@@H]4[C@@]5(C)CC[C@H](O[C@@H]6O[C@H](CO)[C@@H](O[C@@H]7O[C@@H](C)[C@H](O)[C@@H](O)[C@H]7O)[C@H](O)[C@H]6O[C@@H]6O[C@@H](C)[C@H](O)[C@@H](O)[C@H]6O)C(C)(C)[C@@H]5CC[C@]43C)[C@@H]12 | mouse plasma |  | plasma stability | unstable
CNc1cc[n+](CC(=O)Nc2ccc3c(c2)ncn3-c2c(C)noc2C)cc1.O=C[O-] | rat plasma |  | plasma stability | stable
N#C[C@@]1(n2ccc(N)nc2=O)O[C@H](CO)[C@@H](O)[C@H]1O | mouse plasma | 10 µM, 37 °C | plasma stability time | ≥ 2 h
CCCCCCCCCCC[C@H](OC1OC[C@H](O)[C@@H](O)[C@@H]1O)[C@H](O)[C@H](O)C[C@@H]1CC(=O)N[C@H](CO)C(=O)N[C@H]([C@H](O)c2ccc(O)cc2)C(=O)N[C@H](CCN)C(=O)NCC(=O)N[C@@H](CC(N)=O)C(=O)N[C@@H](CO)C(=O)N[C@@H]([C@H](O)C(N)=O)C(=O)N1 (stereo partly drawn) | New Zealand white rabbit, female, plasma | intravaginal, 1.5 mg gel daily, 0.5 h | plasma concentration | 30.2 ng/mL
OCCc1ccc(O)c(O)c1 | human plasma | mean | plasma concentration | 0.029 µM
CSCC[C@H](NC(=O)COCCOCCNC(=O)COCCOCCNC(=O)CC[C@H](NC(=O)CCCCCCCCCCCCCCCCC(=O)O)C(=O)O)C(=O)N[C@H]1CSSC[C@@H](C(=O)NCC(=O)N[C@@H](CO)C(=O)NCC(=O)N[C@@H](CO)C(=O)N[C@@H](CC(=O)O)C(=O)N[C@@H](Cc2ccc(O)cc2)C(=O)N[C@@H](CCCCN)C(=O)N[C@@H](CC(=O)O)C(=O)N[C@@H](CC(=O)O)C(=O)N[C@@H](CC(=O)O)C(=O)N[C@@H](CC(=O)O)C(=O)N[C@@H](CCCCN)C(N)=O)NC(=O)[C@H](Cc2ccccc2)NC(=O)[C@@H]2CCCN2C(=O)[C@H](Cc2c[nH]c3ccccc23)NC(=O)[C@H](CC(C)C)NC(=O)[C@H](CCSC)NC(=O)[C@H](Cc2c[nH]cn2)NC(=O)[C@H](Cc2ccccc2)NC(=O)[C@H](Cc2c[nH]cn2)NC(=O)[C@H]([C@@H](C)O)NC(=O)[C@H](Cc2ccccc2)NC1=O | human plasma | 5 h, 37 °C | plasma stability | stable
Clc1ccc(C(c2ccccc2Cl)C(Cl)Cl)cc1 (stereo not drawn) | human |  | plasma trough concentration | 16 mg/L
CC(=O)N[C@@H](C)C(=O)N[C@H]1CSSC[C@@H](C(=O)O)NC(=O)[C@H](Cc2ccccc2)NC(=O)[C@@H]2CCCN2C(=O)[C@H](Cc2c[nH]c3ccccc23)NC(=O)[C@H](CC(C)C)NC(=O)[C@H](CC(C)C)NC(=O)[C@H](CC(=O)O)NC(=O)[C@H](Cc2ccccc2)NC(=O)[C@H](Cc2c[nH]cn2)NC(=O)[C@H]([C@@H](C)O)NC(=O)[C@H](Cc2ccccc2)NC1=O | human plasma | 5 h, 37 °C | plasma stability | stable
CC(=O)c1c(C)c2cnc(Nc3ccc(C4CCN(CCS(C)(=O)=O)CC4)cn3)nc2n(C2CCCC2)c1=O | rat plasma |  | plasma stability t1/2 | > 6.67 h
O=C(O)Cc1ccccc1 | human plasma | median, both sexes | plasma concentration | 11.2 µM

Some of these lines once more:
Structure (SMILES) | test system | setting | measurement | value
CCCCCCCCCCC[C@H](OC1OC[C@H](O)[C@@H](O)[C@@H]1O)[C@H](O)[C@H](O)C[C@@H]1CC(=O)N[C@H](CO)C(=O)N[C@H]([C@H](O)c2ccc(O)cc2)C(=O)N[C@H](CCN)C(=O)NCC(=O)N[C@@H](CC(N)=O)C(=O)N[C@@H](CO)C(=O)N[C@@H]([C@H](O)C(N)=O)C(=O)N1 (stereo partly drawn) | New Zealand white rabbit, female, plasma | intravaginal, 1.5 mg gel daily, 0.5 h | plasma concentration | 30.2 ng/mL
